Published values pooled from the literature.
Each numbered part is a random draw from the data of one study; scales do not carry over between parts.

Set 1 — method: RNA Bind-n-Seq; molecule type: RNA; sample: in vitro; concentration: 365 nM; relative to: no-protein control; direction: higher = stronger binding; endpoint: RBNS enrichment (R)
Target: RNA binding protein fox-1 homolog 2, RRM domain, GST-SBP tag (RBFOX2, Homo sapiens, UniProt O43251-10, residues 100-194)
Notes: natural RNA segment, single round, ends assumed
Target sequence (chain): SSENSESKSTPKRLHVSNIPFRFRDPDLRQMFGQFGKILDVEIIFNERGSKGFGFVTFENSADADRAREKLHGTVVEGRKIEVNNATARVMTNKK
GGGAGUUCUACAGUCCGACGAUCCAAGGCCAUUACAUCCCACAAACCCAAAUACAAAGCAGCUGACUUCCCUGGAUCUUCCCCCCACUCCUCACACCUCACAUGUCCCAGGAGCUGCCUUCAUUCAGGCGGGUUGGAAUUCUCGGGUGCCAA: 0.645
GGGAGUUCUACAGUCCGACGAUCGAGGACGGUGGCCCUCUUCUCACAGCUCCACUAGGCAGUGCCCCAGUAGGGACUCUGUGUGGGGGCUCCCACACCACAUUUCCCUUCUGCACUGCCCUAGCAGAGGUUCUUGGAAUUCUCGGGUGCCAA: 0.207
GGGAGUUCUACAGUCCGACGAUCAGUGUACACUACUGUAUAAUUUAUGUUUACCAUAUGAGUCUUGAAACACUACAGAUAUUUUGAAUAUCAGUCAUGAUGGCAAUUUCUGUAUAAAAGAGCCUUAAAUGGAAUGGAAUUCUCGGGUGCCAA: 0.276
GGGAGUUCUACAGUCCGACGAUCCAAUUGGUGUUUUUGUUAAACGAAUGAAUCAUCUGUUCAUGCAUGCUCUACUUUGAUAUUAUAACCUAUGUCACAUGUGUUUAAUAAAUACCAUAUAUUUUGUUCUACUAUGGAAUUCUCGGGUGCCAA: 7.79
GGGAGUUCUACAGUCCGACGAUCGCAUUUCCCUGAGAGCAGUGGGAGAGGCCCUCUGAGUUGGAAGUUGAGCUCCACCUCCUUUCCAAGUGAGCACUCAGUGUUGAAUCACAGUUACAACCCACUGGGGCUGGUGGAAUUCUCGGGUGCCAA: 1.19
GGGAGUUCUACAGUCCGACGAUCGAAAUUCAGUUAUAAAGUCAAGGACGAAUUUGCACAGUGAUAUAUUUCUAUGUGUAUGCAAGUACAAGUAUAUAAUAUGUCACCUGGCACAUUCAUUUUCUCAGUUGAAGUGGAAUUCUCGGGUGCCAA: 0.216
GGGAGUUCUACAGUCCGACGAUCGCAGAGCUGCCAGGCUCCCAGGAGAGCAUGGGGACUAGGAGGAAGGGUGUGGCAUGGCUCAGUCUGGCCCCCUUGAUUACCGGCCUAGCCCCUGCUCACAUCACAGCUGUUGGAAUUCUCGGGUGCCAA: 0.307
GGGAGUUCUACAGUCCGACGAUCGCCUAGCCUCAGAUCCUCCGUGAGUAUGCCUACCAAAUGUUGUGAUUAAAGAGGCAGGCGUCACCACACCUGAUAAAUAUUUUCUUCAAGGGAACCAGAGUUUGGUUCUUUGGAAUUCUCGGGUGCCAA: 0.354
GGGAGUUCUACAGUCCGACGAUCUCCUAACCCAUUUCAUCUCGGUUCUGUAUGGGUUUUUCCCGUGCAUGGAAGGGAGGCAGCUCAGGGACCACCAUUGUGGAGCCUUUGAGACCUCUCUGAUUCAGAAACACUGGAAUUCUCGGGUGCCAA: 0.814
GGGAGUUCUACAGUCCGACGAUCGGAGUGGGUGGCCCCAUCACUAUUGGGACCAUCGCGUCCCUGCACAGCCCACACCCGGGGGCCCAGAGUCCUGGGCUGGACGCCACCCUUCUCACCCCGAGCUUGCCUCCUGGAAUUCUCGGGUGCCAA: 0.204
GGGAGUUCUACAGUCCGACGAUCUUUCAGUUGCAACCUAUUUUUAAUAAACUUUGUAUGUAUUUAAGUGUAUUUGCUAUUGUUUUGAAAGUGCUGACAAAGUUUAUAUUUGUAACAUCAGCCUUCCUCGCCCAUGGAAUUCUCGGGUGCCAA: 1.22
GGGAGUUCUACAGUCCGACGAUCCGGUGCGGUCGGUGCAGCGUGGCCAAUGCGCGGCGCGCGCGGGGGACAGAGCAGGAGGCGGUCUGUCACCUCGGCCACUGCUGACCUGGGCUGGCCUCCCCCAGCCCUCCUGGAAUUCUCGGGUGCCAA: 0.325

Set 2 — method: protein-binding microarray; molecule type: double-stranded DNA, one strand shown; sample: in vitro; concentration: 2540 nM top; notes: 60-bp whole probe; together with: salmon DNA 0.4 mg/ml; relative to: random background probes; direction: higher = stronger binding; endpoint: fitted relative affinity; shared flanks, not repeated: GCCTAGCAC … GTCTTGATTCGCTTGACGCTGCTG
Target: Interferon regulatory factor 3, full length, phosphomimetic (IRF3, Homo sapiens, UniProt Q14653, residues 1-427, S386D/S396D/S398D/S402D/T404D/S405D)
Construct (chain): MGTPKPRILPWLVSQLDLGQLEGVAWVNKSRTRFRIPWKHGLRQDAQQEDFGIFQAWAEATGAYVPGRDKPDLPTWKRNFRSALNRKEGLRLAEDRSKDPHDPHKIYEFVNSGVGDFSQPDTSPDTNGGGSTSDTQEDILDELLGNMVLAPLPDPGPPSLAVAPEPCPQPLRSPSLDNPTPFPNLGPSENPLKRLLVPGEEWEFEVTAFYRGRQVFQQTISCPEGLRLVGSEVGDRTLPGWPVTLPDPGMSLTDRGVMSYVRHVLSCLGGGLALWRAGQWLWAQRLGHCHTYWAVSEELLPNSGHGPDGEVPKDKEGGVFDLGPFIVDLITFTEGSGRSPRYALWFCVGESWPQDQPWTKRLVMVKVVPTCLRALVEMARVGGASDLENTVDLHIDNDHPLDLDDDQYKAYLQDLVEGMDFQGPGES
GACGTTTTCGGTATCGGGACGTGCTAG: 5.14 z-score
AAAGATTTATCAAATGTGGGAGTGCTA: -0.396 z-score
TCATCTGTCCGTGCTCAGACTGTGCTA: 0.468 z-score
GACGGTATCGGTCTGGGGACGTGCTAG: 2.66 z-score
TTAGATTTCGGGTTTAGATTAGTGCTA: 2.27 z-score
TCGTATGTGACCTTTTTAAGAGTGCTA: 2.15 z-score
TCACTTTTGAGAGATGGAACTGTGCTA: 0.713 z-score
GACAGACTGGACTTTCGGGACGTGCTA: 0.0915 z-score
TTAGGACTGGACACAGGGTTAGTGCTA: -0.642 z-score
TTAGGTTTCCTTTCCGTTTAGTGCTAG: 11.3 z-score
GACGGTATCGGGTATCGGGCCGTGCTA: 1.39 z-score
GACGGTTTCGGGTATCGGGATGTGCTA: 4.69 z-score
TTCGATTTCGGGACTGGATTAGTGCTA: 2.24 z-score
TCAAATACAAGTTTCTCACTGTGCTAG: 0.798 z-score
TCAACTTTCTCTGCTCTTACTGTGCTA: 1.14 z-score
TTATGTTTCGACTATCGGTTAGTGCTA: 1.98 z-score
TCAAAGTTCTTTTTTTCACTGTGCTAG: 0.912 z-score
TCAGGTTTCGGGACTGGGTTAGTGCTA: 4.31 z-score
TTAGGTTTCGGGACTGGATTAGTGCTA: 4.55 z-score
GACGGACTGGGACTGGGTACGTGCTAG: -0.799 z-score
AAACAAGTCAATGGCCTTTCGTGCTAG: -0.324 z-score
TTAGGACTGCTTCTACTTTAGTGCTAG: -0.226 z-score

Set 3 — method: RNA Bind-n-Seq; molecule type: RNA; sample: in vitro; concentration: 1 µM; notes: whole 134-nt RNA, ends assumed; together with: 150 mM KCl; relative to: input library; direction: higher = stronger binding; endpoint: log2 enrichment
Target: Ras GTPase-activating protein-binding protein 1, C-terminal RGG region (G3BP1, Homo sapiens, UniProt Q13283)
Chain of UniProt Q13283 (whole entry, looked up): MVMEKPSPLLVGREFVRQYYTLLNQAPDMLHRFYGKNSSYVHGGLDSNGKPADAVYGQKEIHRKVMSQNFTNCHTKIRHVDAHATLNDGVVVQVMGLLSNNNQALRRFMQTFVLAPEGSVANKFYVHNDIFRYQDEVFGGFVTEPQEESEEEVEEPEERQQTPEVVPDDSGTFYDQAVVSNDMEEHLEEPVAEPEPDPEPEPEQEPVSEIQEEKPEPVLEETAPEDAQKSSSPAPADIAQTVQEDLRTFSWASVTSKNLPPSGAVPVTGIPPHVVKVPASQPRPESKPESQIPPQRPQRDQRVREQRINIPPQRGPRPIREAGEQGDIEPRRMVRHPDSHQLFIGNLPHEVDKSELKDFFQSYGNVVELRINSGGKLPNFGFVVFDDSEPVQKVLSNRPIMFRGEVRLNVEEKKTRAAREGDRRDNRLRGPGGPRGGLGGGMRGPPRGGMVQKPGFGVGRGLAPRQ
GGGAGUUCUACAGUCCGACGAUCUGGCCCUGGUGGCAUGCGGGGAGGAAGAGGUGGCCUCAUGGAUCGUGGUGGUCCCGGUGGAAUGAUCAGAGGUGGCCGUGGUGGAGACAGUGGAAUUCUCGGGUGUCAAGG: 1.88
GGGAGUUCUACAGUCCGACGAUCUUCCUUUCCGUUGUGUGUUUUAAAGGUGUGUGCCCUCUUCCUGAUUCUGGAGAAAAAUGCCGGUCCGGAAGCAAGGUGAGAGUUUAUUCCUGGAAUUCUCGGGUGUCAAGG: 0.0571
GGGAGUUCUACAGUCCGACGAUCUUGUAUUAAGACAACGCUCCUCGACUUAGAUGCCUUGGCAAGACAUUUGGCUGACUGUAUUCGAAGGUAAAAUUUGAUGUGAAAUUGACAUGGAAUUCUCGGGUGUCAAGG: -0.862
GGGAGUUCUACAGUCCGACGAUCAGUCCUGUGCUACACAUCGUAUGUACCGAAUCGGGGCCCCCGGCCCCCGGGCCCCCGGAAAGUAUUAUGUUACGCCGUUCGGAUCUGCACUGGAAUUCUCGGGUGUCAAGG: -1.81
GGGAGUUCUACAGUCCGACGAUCUGGGAGGUGGAUUUUGUUUAUUUUCUUAGCUCAUUUCCAGGGGUGGGAAUUUUUUUUUAAUAUGUGUCAUGAAUAAAGUUGUUUUUGAAAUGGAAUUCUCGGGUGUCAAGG: 3.4
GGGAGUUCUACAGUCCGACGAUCCACAGACAACACGCACCCACACAGACACAGAGGGAAGGGGUUGGGAUGGGGACAGGGUGCACAGCCGGGCGGGGUAGGACCCCAGCCCCUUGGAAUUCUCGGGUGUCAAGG: 0.058
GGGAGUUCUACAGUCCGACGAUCUGUGCUACACAUCGUAUGUACCGAAUCGGGGCCCCCCCGGCCCCCCCGGGGCCCCCCCGGGGAAAGUAUUAUGUUACGCCGUUCGGAUCUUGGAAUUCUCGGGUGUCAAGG: -2.33
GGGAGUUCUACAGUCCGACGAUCCCUCAAGUCCUGUGCUACACAUCGUAUGUACCGAAUCGGUGGUGGGGUGGGGAAAGUAUUAUGUUACGCCGUUCGGAUCUGCACUUCCAGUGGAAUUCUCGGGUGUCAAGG: -0.186
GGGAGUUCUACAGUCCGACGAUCCAAGUCCUGUGCUACACAUCGUAUGUACCGAAUCGGGCCCGGCCCGGGGCCCGGGGAAAGUAUUAUGUUACGCCGUUCGGAUCUGCACUUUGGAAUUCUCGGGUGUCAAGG: -1.68
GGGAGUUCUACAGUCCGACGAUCGUCCUGUGCUACACAUCGUAUGUACCGAAUCGGGGUGGGGUUUUUUUGGGGUUUGGGGAAAGUAUUAUGUUACGCCGUUCGGAUCUGCACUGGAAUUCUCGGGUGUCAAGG: 1.08

Set 4 — method: universal PBM; molecule type: double-stranded DNA, one strand shown; sample: in vitro; concentration: not given; direction: higher = stronger binding; endpoint: E-score
Target: Sal-like protein 4, full length isoform B (SALL4, Homo sapiens, UniProt Q9UJQ4-2, residues 1-616)
Notes: 8-mer, flanks averaged, mean of replicates
Residues (chain): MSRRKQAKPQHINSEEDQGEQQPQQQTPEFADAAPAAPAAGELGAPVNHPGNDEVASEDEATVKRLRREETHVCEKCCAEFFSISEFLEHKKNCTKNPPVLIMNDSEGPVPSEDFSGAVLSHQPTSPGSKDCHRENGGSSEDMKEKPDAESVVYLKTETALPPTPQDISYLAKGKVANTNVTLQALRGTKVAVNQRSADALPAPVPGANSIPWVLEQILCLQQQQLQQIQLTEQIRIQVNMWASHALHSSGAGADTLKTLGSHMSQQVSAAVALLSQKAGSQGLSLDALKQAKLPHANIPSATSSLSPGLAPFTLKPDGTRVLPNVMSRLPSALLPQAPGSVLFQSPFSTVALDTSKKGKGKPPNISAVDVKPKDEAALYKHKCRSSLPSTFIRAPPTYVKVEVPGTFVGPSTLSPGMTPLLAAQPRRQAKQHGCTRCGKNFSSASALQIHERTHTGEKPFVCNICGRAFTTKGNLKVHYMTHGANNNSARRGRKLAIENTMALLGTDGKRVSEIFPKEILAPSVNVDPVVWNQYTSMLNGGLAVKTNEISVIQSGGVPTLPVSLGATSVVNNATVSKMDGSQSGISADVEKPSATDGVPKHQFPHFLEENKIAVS
CGTGAAAA: 0.102
CCTTACCG: -0.177
ACGGGTAG: -0.157
CAGGGGTC: -0.241
AAGTGATG: -0.0197
CTCCTGAC: -0.17
CCCCGGCG: -0.361
CCTACTAA: -0.057
AGCGGGCA: -0.202
ATTCACAG: 0.0603
AGCTAGTC: -0.0327
AGCAATTC: 0.0786
AGGGGTCG: -0.204
GGGATGTA: 0.0893
GCAAGCGC: -0.167
AGGGCTGA: -0.162
AGAGGGTC: -0.182
ACCAACAC: 0.0427
ATTAGGAG: 0.108
CGGATAAA: 0.173
GGTACATA: 0.0656
GATGACGA: 0.103
GGGGGTCA: -0.224
ACGAAGTC: -0.0271
AGCACAAG: -0.0366

Some of these lines once more (set 4):
CAGGGGTC: -0.241
AAGTGATG: -0.0197
CTCCTGAC: -0.17
CCCCGGCG: -0.361
CCTACTAA: -0.057
AGCGGGCA: -0.202
ATTCACAG: 0.0603
AGCTAGTC: -0.0327
